Experimental data from different studies.
Protocols differ between the studies behind these lines. Changes are numbered by the printed parent chain.
Homeobox-leucine zipper protein: Homeobox-leucine zipper protein 1-308 (Manihot esculenta, UniProt A0A2C9UVS0)
GST-Dig1 213-452: GST-Dig1 213-452 (Saccharomyces cerevisiae)
P1: COPA (Homo sapiens); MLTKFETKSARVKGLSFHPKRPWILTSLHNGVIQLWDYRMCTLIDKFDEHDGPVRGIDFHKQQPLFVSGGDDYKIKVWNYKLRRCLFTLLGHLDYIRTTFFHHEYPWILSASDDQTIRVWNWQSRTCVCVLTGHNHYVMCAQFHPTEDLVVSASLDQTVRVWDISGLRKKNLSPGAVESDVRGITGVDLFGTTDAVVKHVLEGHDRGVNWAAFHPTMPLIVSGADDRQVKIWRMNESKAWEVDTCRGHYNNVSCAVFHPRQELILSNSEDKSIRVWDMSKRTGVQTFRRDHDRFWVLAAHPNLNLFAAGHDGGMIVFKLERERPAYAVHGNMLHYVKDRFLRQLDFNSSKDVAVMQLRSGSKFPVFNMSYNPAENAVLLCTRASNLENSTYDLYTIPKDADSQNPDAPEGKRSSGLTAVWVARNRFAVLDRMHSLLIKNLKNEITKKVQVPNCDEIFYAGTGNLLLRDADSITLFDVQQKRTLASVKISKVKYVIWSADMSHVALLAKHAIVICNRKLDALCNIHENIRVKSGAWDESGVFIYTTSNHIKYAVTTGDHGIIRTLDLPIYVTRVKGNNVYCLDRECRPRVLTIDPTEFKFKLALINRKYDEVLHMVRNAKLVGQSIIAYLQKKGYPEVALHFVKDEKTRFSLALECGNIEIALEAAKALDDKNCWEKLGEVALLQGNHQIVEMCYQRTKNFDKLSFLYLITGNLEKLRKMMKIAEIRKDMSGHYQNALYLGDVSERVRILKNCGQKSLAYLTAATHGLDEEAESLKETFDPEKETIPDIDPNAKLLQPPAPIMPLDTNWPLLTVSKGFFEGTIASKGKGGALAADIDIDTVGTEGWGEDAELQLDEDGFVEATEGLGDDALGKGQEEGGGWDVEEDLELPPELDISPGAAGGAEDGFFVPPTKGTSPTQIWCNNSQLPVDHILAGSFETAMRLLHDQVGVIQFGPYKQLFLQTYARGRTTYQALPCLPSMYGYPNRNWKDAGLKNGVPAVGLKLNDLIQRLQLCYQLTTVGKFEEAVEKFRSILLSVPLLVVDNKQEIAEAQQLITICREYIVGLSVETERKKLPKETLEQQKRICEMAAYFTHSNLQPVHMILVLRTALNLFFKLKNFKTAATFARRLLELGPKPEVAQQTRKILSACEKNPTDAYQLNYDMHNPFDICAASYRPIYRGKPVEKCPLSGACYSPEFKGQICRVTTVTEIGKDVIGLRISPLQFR
P2: KSS1 (Saccharomyces cerevisiae); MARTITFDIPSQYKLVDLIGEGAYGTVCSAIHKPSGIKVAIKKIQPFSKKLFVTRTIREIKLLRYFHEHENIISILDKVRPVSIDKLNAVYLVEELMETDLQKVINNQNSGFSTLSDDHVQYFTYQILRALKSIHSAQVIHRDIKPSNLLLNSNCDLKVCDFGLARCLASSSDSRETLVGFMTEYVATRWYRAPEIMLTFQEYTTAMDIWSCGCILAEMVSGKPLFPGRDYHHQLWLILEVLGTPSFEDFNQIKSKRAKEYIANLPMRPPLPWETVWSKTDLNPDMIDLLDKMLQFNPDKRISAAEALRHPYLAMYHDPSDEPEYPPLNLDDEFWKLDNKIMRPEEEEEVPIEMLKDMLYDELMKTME; partner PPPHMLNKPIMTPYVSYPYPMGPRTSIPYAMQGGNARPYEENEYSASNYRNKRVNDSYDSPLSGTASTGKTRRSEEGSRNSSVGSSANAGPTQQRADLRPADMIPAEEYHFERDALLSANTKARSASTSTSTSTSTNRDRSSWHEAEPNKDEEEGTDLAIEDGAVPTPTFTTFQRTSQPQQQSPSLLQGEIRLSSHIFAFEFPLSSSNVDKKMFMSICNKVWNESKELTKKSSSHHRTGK
P3: FUS3 (Saccharomyces cerevisiae); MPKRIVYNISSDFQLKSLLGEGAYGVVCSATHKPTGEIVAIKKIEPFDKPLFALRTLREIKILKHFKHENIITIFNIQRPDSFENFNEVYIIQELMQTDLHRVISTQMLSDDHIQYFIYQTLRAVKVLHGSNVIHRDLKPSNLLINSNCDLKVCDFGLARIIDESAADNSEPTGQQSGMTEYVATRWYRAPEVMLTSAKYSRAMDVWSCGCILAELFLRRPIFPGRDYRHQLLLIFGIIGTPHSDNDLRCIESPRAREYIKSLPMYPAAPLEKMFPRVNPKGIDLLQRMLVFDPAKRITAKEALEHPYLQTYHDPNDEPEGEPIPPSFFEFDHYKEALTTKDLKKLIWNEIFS
Sequence of UniProt Q04207 (whole entry, looked up): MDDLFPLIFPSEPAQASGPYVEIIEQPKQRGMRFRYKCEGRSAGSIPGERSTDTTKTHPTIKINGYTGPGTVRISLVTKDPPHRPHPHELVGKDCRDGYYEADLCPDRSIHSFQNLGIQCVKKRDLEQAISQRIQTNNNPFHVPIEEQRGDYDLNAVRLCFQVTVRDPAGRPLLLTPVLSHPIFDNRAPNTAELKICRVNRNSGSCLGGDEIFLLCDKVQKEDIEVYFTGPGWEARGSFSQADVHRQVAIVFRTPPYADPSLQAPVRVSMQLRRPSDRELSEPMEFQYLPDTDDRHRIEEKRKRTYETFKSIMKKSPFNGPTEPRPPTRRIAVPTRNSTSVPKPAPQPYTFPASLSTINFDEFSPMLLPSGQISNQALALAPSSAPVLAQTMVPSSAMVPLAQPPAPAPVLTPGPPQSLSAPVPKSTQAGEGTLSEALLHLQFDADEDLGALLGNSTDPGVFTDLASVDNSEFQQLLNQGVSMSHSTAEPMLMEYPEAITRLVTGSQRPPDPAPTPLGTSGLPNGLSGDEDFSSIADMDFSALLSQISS

P1 E241K
relative binding (SURF4 (Homo sapiens); co-IP, immunoblot; HEK293T; baseline: unchanged protein, higher = more SURF4 bound): 0.3

CAGACTGGGAAATTCCAGTGTC (dsDNA)
Kd (Rela 19-304 (Mus musculus, UniProt Q04207); EMSA; double-stranded DNA, one strand shown): 16 nM

TTAGCAAAATTTTTAAGAATATAATTATTAGTCAATCGTCGTGGGACAT (dsDNA)
binding (Homeobox-leucine zipper protein; EMSA; double-stranded DNA, one strand shown): binds

P2 D318A D321A
relative binding (GST-Dig1 213-452; GST pull-down; baseline: wild type protein, higher = more binding): 62%

GAAATATCCCATTATAATAATAATTATTACTATATATTGTATTTATTTAAA (dsDNA)
binding (Homeobox-leucine zipper protein; EMSA; double-stranded DNA, one strand shown): binds

P3 D317N
relative binding (GST-Dig1 213-452; GST pull-down; baseline: wild type protein, higher = more binding): 153%
